# Measurements gathered from unrelated publications.
# Every numbered part comes from another study and shows a few of its results, in no order. Positions count from the first letter of the parent shown.

# Sample 1
# Target: CREB5, bZIP domain (human)
# Technique: DHFR protein complementation
# Sample: yeast
# Setting: single substitutions, most at no-binding floor
# Relative to: wild-type JUN-FOS pair
# Reading: higher = stronger binding
# Starting sequence: JUN, bZIP domain (human); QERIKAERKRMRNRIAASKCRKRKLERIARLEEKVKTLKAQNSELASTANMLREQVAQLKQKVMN; partner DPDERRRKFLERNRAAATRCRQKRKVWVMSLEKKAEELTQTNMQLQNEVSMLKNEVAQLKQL
Substitution,binding fitness [natural log]
E44D,-0.523
L45V,-1.34
L52H,-1.35
A46N,-0.251
A57W,-0.63
V56N,-1.38
L59W,-1.04
A29N,-0.405
K34G,-1.08
E44T,-0.524
V35S,-1.33
L59V,-1.19
T48Q,-0.146
L38A,-1.33
N42L,-1.17
R30W,-0.332
L38V,-1.24
S47D,-0.168
K36V,-0.423

# Sample 2
# Target: Interferon regulatory factor 5, full length, phosphomimetic (IRF5, Homo sapiens, UniProt Q13568-2, residues 1-514, S451D/S453D/S456D/S462D)
# Technique: protein-binding microarray
# Molecule type: double-stranded DNA, one strand shown
# Sample: in vitro
# Concentration: 940 nM top
# Setting: 60-bp whole probe
# With: salmon DNA 0.4 mg/ml
# Relative to: random background probes
# Reading: higher = stronger binding
# All sequences stand within: GCCTAGCAC … GTCTTGATTCGCTTGACGCTGCTG
Sequence,fitted relative affinity
TCAATTCTCTGCTTGCGACTGTGCTAG,0.992 z-score
TCAAATCTCAGCCTCCGACTGTGCTAG,0.415 z-score
TGGAGCCTAAGGTTTAGGCTCGTGCTA,-0.998 z-score
CTAGGACTGGGGTTTCGGTTAGTGCTA,5.77 z-score
CTCATTTTCATTTTGTGTCTGTGCTAG,1.36 z-score
GAAAACAAAGAAAATACAAAGTGCTAG,0.104 z-score
GACGAACTGGGGACTGGATACGTGCTA,-0.196 z-score
TTAGATCTCAGTCTGGATTAGTGCTAG,0.146 z-score
TCAATTTCCACTTTGACACTGTGCTAG,0.745 z-score
GACGGTTTCATTATCCTGACGTGCTAG,5.84 z-score
TCTCTTTTATTTTTTTTATTGTGCTAG,4.31 z-score
TTTGATTTCAGTCTCGATTAGTGCTAG,4.69 z-score
GACGGACTGTTTATCCTGACGTGCTAG,-0.264 z-score
GACCATTCCAGTTTCGAGACGTGCTAG,4.65 z-score
GACGGTTTCGACTATCGGGATGTGCTA,7.91 z-score
TTAGGTATCCTTAGCCTTTAGTGCTAG,0.0951 z-score
TTAGGTTTCCTACTGGTTTAGTGCTAG,0.709 z-score

# Sample 3
# Target: Ras GTPase-activating protein-binding protein 1, C-terminal RGG region (G3BP1, Homo sapiens, UniProt Q13283)
# Sequence of UniProt Q13283 (whole entry, looked up): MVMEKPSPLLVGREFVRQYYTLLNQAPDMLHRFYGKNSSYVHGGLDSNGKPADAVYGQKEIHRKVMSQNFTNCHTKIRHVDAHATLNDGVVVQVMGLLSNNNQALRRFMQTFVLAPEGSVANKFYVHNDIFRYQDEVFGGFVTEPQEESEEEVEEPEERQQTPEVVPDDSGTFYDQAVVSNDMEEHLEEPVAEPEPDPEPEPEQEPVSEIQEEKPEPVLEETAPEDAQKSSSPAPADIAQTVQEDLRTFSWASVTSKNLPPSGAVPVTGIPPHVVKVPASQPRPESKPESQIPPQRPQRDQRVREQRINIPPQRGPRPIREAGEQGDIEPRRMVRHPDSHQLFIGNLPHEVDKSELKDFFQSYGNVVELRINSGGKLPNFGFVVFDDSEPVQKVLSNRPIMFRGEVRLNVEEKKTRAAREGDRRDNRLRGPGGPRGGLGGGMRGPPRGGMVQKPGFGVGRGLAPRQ
# Technique: RNA Bind-n-Seq
# Molecule type: RNA
# Sample: in vitro
# Concentration: 1 µM
# Setting: whole 134-nt RNA, ends assumed
# With: 150 mM KCl
# Relative to: input library
# Reading: higher = stronger binding
# All sequences stand within: GGGAGUUCUACAGUCCGACGAUC … UGGAAUUCUCGGGUGUCAAGG
Sequence,log2 enrichment
CUCAGCAGACCCUGAAGGACACUUUGAGACACCAAUCUGGAUUGAGCGGGUGGUGAUAAUAGGGGCUGGAAAGCCAGCAGCUGUGGUACU,-0.606
AGUCCUGUGCUACACAUCGUAUGUACCGAAUCGGGGAAAAAGGGGUGGGGAAAGGGGAAAGUAUUAUGUUACGCCGUUCGGAUCUGCACU,1.69
UGGACCCGGAGCUGAUGCAGAAGUUCAGCUGCCUGGGCACCACCGACAAGGACGUGCUCAUCUCCGAGUUCCAGAGGCUGCUCGGCUUCC,-0.552
UCCGCGUGUGAAGUUUUUCUCGGCUGCAUCAUGGGUGCCACAUUCUUUUUGUUGUUUUCAGUGCUGCAAAAGCCCCAUAUCUGGCCAAGU,-0.973
CACAGACAACACGCACCCACAAAAACACAGAGGGAAGGGGUUGGGAUGGGGACAGGGUGCACAGCAGGGCGGGGUAGGACCCCAGCCCCU,-0.38
UAUCUUAUCUACACAUGGGGGACUGAAGAGUUCGAGAGAUCCAAGAGGAAGAAUCCAGCUGCCUAUGAAAAUGACAAAUGAGCAACGCAU,-1.51
UCCUGUGCUACACAUCGUAUGUACCGAAUCGGGGAAAAAGGGGAAAAAGGGGAAAGGGGAAAGUAUUAUGUUACGCCGUUCGGAUCUGCA,2.32
CACAGACAACACGCACCCACACAGACACAGAGGGAAGGGUUUGGGAUGGGGACAGGGUGCACAGCAGGGCGGGGUAGGACCCCAGCCCCU,-0.471
AGUCCUGUGCUACACAUCGUAUGUACCGAAUCGGGAAAAGGGAAAAGGGGAAAAGGGAAAGUAUUAUGUUACGCCGUUCGGAUCUGCACU,0.999
CCUCAAGUCCUGUGCUACACAUCGUAUGUACCGAAUCGGGUGGGGUGGUGGGAAAGUAUUAUGUUACGCCGUUCGGAUCUGCACUUCCAG,0.834
UCAAGUCCUGUGCUACACAUCGUAUGUACCGAAUCGGUUUUUGGUUUGGUUUGGAAAGUAUUAUGUUACGCCGUUCGGAUCUGCACUUCC,-1.29
CAAGUCCUGUGCUACACAUCGUAUGUACCGAAUCGGGCCGGGGCCGGGGCCGGGGAAAGUAUUAUGUUACGCCGUUCGGAUCUGCACUUC,-1.04
UCCUGUGCUACACAUCGUAUGUACCGAAUCGGGGAAAGGGGAAAGGGGUUUUUUUGGGGAAAGUAUUAUGUUACGCCGUUCGGAUCUGCA,2.59
CACAGACAACAGGCACCCACACAGACACAGAGGGAAGGGGUUGGGAUGGGGACAGGGUGCACAGCAGGGCGGGGUAGGACCCCAGCCCCU,-0.135

# Sample 4
# Target: CCNA1, cyclin fold, Cln2 fusion (human)
# Technique: yeast growth competition, sequencing
# Sample: yeast
# Setting: weak parent motif
# Relative to: not given
# Reading: higher = stronger binding
# Starting sequence: ORC1 docking peptide (human); PRARKRLELGNLG
Substitution,normalised enrichment score
TRARKRLELGNLG [P1T],0.301
PRPRKRLELGNLG [A3P],0.256
PKARKRLELGNLG [R2K],0.504
LRARKRLELGNLG [P1L],0.467
PRARKRLNLGNLG [E8N],0.486
PRARKRAELGNLG [L7A],0.431
VRARKRLELGNLG [P1V],0.291
PRARKRLHLGNLG [E8H],-0.0999
PRARKRLELGNGG [L12G],0.159
PRAGKRLELGNLG [R4G],0.345
PRARKRHELGNLG [L7H],0.238
PRRRKRLELGNLG [A3R],0.185
PRARKRLETGNLG [L9T],0.457
ERARKRLELGNLG [P1E],0.652
PRARKREELGNLG [L7E],0.266
PRGRKRLELGNLG [A3G],0.281
PQARKRLELGNLG [R2Q],0.342
PRARKRLERGNLG [L9R],0.622
PRARKRLELCNLG [G10C],0.33
PRAMKRLELGNLG [R4M],0.451
PRFRKRLELGNLG [A3F],0.303
PRARKMLELGNLG [R6M],0.39
PRARKRLELANLG [G10A],0.308
PRLRKRLELGNLG [A3L],-0.17
PWARKRLELGNLG [R2W],0.454

# Sample 5
# Target: RNA binding protein fox-1 homolog 2, RRM domain, GST-SBP tag (RBFOX2, Homo sapiens, UniProt O43251-10, residues 100-194)
# Technique: RNA Bind-n-Seq
# Molecule type: RNA
# Sample: in vitro
# Concentration: 365 nM
# Setting: natural RNA segment, single round, ends assumed
# Relative to: no-protein control
# Reading: higher = stronger binding
# All sequences stand within: GGGAGUUCUACAGUCCGACGAUC … UGGAAUUCUCGGGUGCCAA
# Target sequence (chain): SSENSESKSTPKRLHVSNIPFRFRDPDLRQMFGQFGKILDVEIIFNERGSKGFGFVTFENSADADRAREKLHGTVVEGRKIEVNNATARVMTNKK
Sequence,RBNS enrichment (R)
UCACAUAUGUUGUGAAUUUUCCUUGGUUCUUUUUAAAGGAAUGAUAAUAAAGUUACUUGCUUUAGGAUUUGCUUGUUUUUCUUCCACUUCAGAAGCUUCUGAGAGGGAAU,0.386
CCAGAAGUAGCAGAACCCUAGCUCUGUUUGUGUGACAUAGUAGGGUAUUAGACUAUGAGGUUGUGGUCUGGUAAGUCACUCAGCUGGCUCUGUUCAAAUGCAUUGAGAGA,0.492
AUGGCAACUGAGAUUCUAAGCUCUCUUUGUCUCAUCCAGGCAACUUUUCUGUCUCCCAACCAAGGAAUUCCUCUGCUCAGGCUCCUGUUGCCCAGGAUAGCUCUCUUCUA,0.277
UCCCUUCCACCUCCCUGAAAUGUACGUGGAGCCACUCAGAACACAACUGUAUCACUGAGGUAACUCCUCAGUGUUGGGUCCAUUACAGCCUUGGAGCAAAGUUGACCACC,0.207
AAACUCAUCCUGUAGAGCAGGCUGGCCUUGAACUCACAGAGCUCCACCUGCCCCUGCCUCUGAUCCAGAGUGCUGGGGUUACAGGUGACCCCAACCAUAACCAGUUCAUU,0.241
CUUCUGUCAUCUAGACUGUGCAUCCCUGUAAUACCUGACUGAUCACAGUGUUAGUGCUGGUCAGAGAGACCUCAUCCUGCUCUUUUGUGAUGAACAUAUUCAUGACGCGU,0.271
GAGAUGUGUGUUUGACUGUGAGAGAGUGUGUGUUUGUGUGUGUGUUUUGCCAUGAACUGUGGCCCCAGUGUAUAGUGUUUCAGUGGGGGAGAAGCUGAAAGACCAAGACU,2.11
GGACAGCCCCGCCAUGGCCACAGACUCUGUCCUCACCUUUGAUUGUCAGGAUGACAGCCCCCACCACCAUGAUGAGCGUCUGCAGGGCGUCCGUGUAGAUUACAGCAGCC,0.746
CUGUGCGACUGCUAAACUGCAGGUUUUUGUUGAAGGAACUAAAAGCAACUAGUUCACUCAUAGUCUACAGUUUUAUGUUCUUUUGGCUUAAAGUUAAAAGAAAAUACAGA,0.401
UUUAUGACUUUACGUGCAAAUGUUUUGACCAUAUUGAUCAUAUAUUUUGACAAAUAUAUUUAUAACUACAUAUUAAAAGAAAAUAAAAUGAGUCAUUAUUUUAAAGAUAA,0.536
GAAUGUAAUUUAUUGGGGCACCCUCUGCUGCUUCCCUGACUCCCUGCCCUACCUAAUUGCACUUCCAGUCCUGUCUGUCCACAUAUGUACGUGUAUAUAAUUAUACAUAU,1.09
CAUGAACCUAGAGAUGCUAUCGGUGACAUCCGCCGUUGUGUUGUUCUUUUGCAGCCGUCUGGGCCGCUUCUCGGUGAGCCGCGGUAGGCGUGGCUGCACGGAGUCACAAG,0.219

# For quick reference, copied from above (sample 3):
Sequence,log2 enrichment
CUCAGCAGACCCUGAAGGACACUUUGAGACACCAAUCUGGAUUGAGCGGGUGGUGAUAAUAGGGGCUGGAAAGCCAGCAGCUGUGGUACU,-0.606
AGUCCUGUGCUACACAUCGUAUGUACCGAAUCGGGGAAAAAGGGGUGGGGAAAGGGGAAAGUAUUAUGUUACGCCGUUCGGAUCUGCACU,1.69
UGGACCCGGAGCUGAUGCAGAAGUUCAGCUGCCUGGGCACCACCGACAAGGACGUGCUCAUCUCCGAGUUCCAGAGGCUGCUCGGCUUCC,-0.552
UCCGCGUGUGAAGUUUUUCUCGGCUGCAUCAUGGGUGCCACAUUCUUUUUGUUGUUUUCAGUGCUGCAAAAGCCCCAUAUCUGGCCAAGU,-0.973
CACAGACAACACGCACCCACAAAAACACAGAGGGAAGGGGUUGGGAUGGGGACAGGGUGCACAGCAGGGCGGGGUAGGACCCCAGCCCCU,-0.38
UAUCUUAUCUACACAUGGGGGACUGAAGAGUUCGAGAGAUCCAAGAGGAAGAAUCCAGCUGCCUAUGAAAAUGACAAAUGAGCAACGCAU,-1.51
UCCUGUGCUACACAUCGUAUGUACCGAAUCGGGGAAAAAGGGGAAAAAGGGGAAAGGGGAAAGUAUUAUGUUACGCCGUUCGGAUCUGCA,2.32
CACAGACAACACGCACCCACACAGACACAGAGGGAAGGGUUUGGGAUGGGGACAGGGUGCACAGCAGGGCGGGGUAGGACCCCAGCCCCU,-0.471
AGUCCUGUGCUACACAUCGUAUGUACCGAAUCGGGAAAAGGGAAAAGGGGAAAAGGGAAAGUAUUAUGUUACGCCGUUCGGAUCUGCACU,0.999
CCUCAAGUCCUGUGCUACACAUCGUAUGUACCGAAUCGGGUGGGGUGGUGGGAAAGUAUUAUGUUACGCCGUUCGGAUCUGCACUUCCAG,0.834
UCAAGUCCUGUGCUACACAUCGUAUGUACCGAAUCGGUUUUUGGUUUGGUUUGGAAAGUAUUAUGUUACGCCGUUCGGAUCUGCACUUCC,-1.29
CAAGUCCUGUGCUACACAUCGUAUGUACCGAAUCGGGCCGGGGCCGGGGCCGGGGAAAGUAUUAUGUUACGCCGUUCGGAUCUGCACUUC,-1.04
UCCUGUGCUACACAUCGUAUGUACCGAAUCGGGGAAAGGGGAAAGGGGUUUUUUUGGGGAAAGUAUUAUGUUACGCCGUUCGGAUCUGCA,2.59
CACAGACAACAGGCACCCACACAGACACAGAGGGAAGGGGUUGGGAUGGGGACAGGGUGCACAGCAGGGCGGGGUAGGACCCCAGCCCCU,-0.135
